Published values pooled from the literature.
Protocols differ between the studies behind these lines. “And” joins repeats or separate records; there may be more than shown. pEC50, pIC50: −log10 of the molar value.

| SMILES | cell line | assay | conditions | scale | endpoint | result |
| --- | --- | --- | --- | --- | --- | --- |
| CC[C@H]1OC(=O)[C@H](C)[C@@H](O[C@H]2C[C@@](C)(OC)[C@@H](O)[C@H](C)O2)[C@H](C)[C@@H](O[C@@H]2O[C@H](C)C[C@H](N(C)C)[C@H]2O)[C@](C)(OC)C[C@@H](C)C(=O)[C@H](C)[C@@H](O)[C@]1(C)O | primary rat hippocampal/cortical neuron-glia cultures |  | 1 µM, added: 1 µM α-synuclein oligomers |  | reversal of trafficking deficit | 5.9% |
| CC1(C)CCC(CN2CCN(c3ccc(C(=O)NS(=O)(=O)c4ccc(NCC5CCOCC5)c([N+](=O)[O-])c4)c(Oc4cnc5[nH]ccc5c4)c3)CC2)=C(c2ccc(Cl)cc2)C1 | THP-1 | annexin V/PI flow cytometry, measured: annexin V-/PI- | 0.4 µM, 24 h |  | viable cells | 93.7% |
| Cc1cccc(-c2[nH]c(CNc3ccccc3F)nc2-c2ccc3ncnn3c2)n1 | MM1.S pomalidomide-resistant | XTT | 1 µM | baseline: untreated | viability | 77% |
| CC(C)NCC(O)c1ccc(O)c(O)c1 (stereo not drawn) | mouse ventricular cardiomyocytes |  | dose not given, 0.303 s |  | sarcomere length | 1.8 µm |
| CC1(C)CCC(c2ccc(Cl)cc2)=C(CN2CCN(c3ccc(C(=O)NS(=O)(=O)c4ccc(N[C@H](CCN5CCOCC5)CSc5ccccc5)c(S(=O)(=O)C(F)(F)F)c4)cc3)CC2)C1 | HD-MB03 | cell growth | 168 h, DMSO |  | pIC50 | 7.08 |
| COc1cnc2cccc(N3CCc4c(cc(Cn5ccnc5C)cc4-c4cn(C)nc4C(F)(F)F)C3=O)c2c1 | NCI-H596 | cell growth, inhibitor | 120 h |  | pEC50 | 5.25 |
| CC[C@]1(O)C[C@H]2CN(CCc3c([nH]c4ccccc34)[C@@](C(=O)OC)(c3cc4c(cc3OC)N(C=O)[C@H]3[C@@](O)(C(=O)OC)[C@H](OC(C)=O)[C@]5(CC)C=CCN6CC[C@]43[C@@H]65)C2)C1 | HD-MB03 | cell growth | 168 h, DMSO |  | pIC50 | 7.72 |
| O=C(/C=C/C=C/C=C/C1CCCCC1)NC1=C[C@@](O)(/C=C/C=C/C=C/C(=O)NC2=C(O)CCC2=O)[C@@H]2O[C@@H]2C1=O | SK-MEL-24 | cell growth, CellTiter-Glo | 78 h |  | GI50 | 28 µM |
| O=C(O)COCC(=O)O | iPSC-derived hepatocytes B3 | cell viability | 24 h, differentiation day 23 |  | pIC50 | 2.09 |
| Cn1cc(-c2ccc(-c3cncc(Cl)c3N3CCC4(CCNC4=O)CC3)cc2)cn1 | COLO 205 | gene expression, microarray, measured: TLR3 mRNA | concentration not given, 2 h | baseline: untreated cells | log2 fold change | 2.39 |
| CN1CCN(CCOc2cc(OC3CCOCC3)c3c(Nc4c(Cl)ccc5c4OCO5)ncnc3c2)CC1 | HD-MB03 |  | 168 h |  | IC50 | inactive |
| CCn1cc(-c2cc(Cn3ccnc3)cc3c2CCN([C@H](c2cc(OC)ccn2)C2CC2)C3=O)c(C(F)(F)F)n1 | JeKo-1 | cell growth, inhibitor | 120 h |  | pEC50 | 7.55 |
| Cc1nc(Nc2ncc(C(=O)Nc3c(C)cccc3Cl)s2)cc(N2CCN(CCO)CC2)n1 | HD-MB03 | cell growth | 168 h, DMSO |  | pIC50 | 5.55 |
| Nc1cccc2c1C(=O)N(C1CCC(=O)NC1=O)C2=O (stereo not drawn) | MM1.S | XTT | 1.4 µM |  | viability | 28% and 16% and 29% |
| CC[C@@H]1C(=O)N(C)c2cnc(Nc3ccc(C(=O)N[C@H]4CC[C@H](N5CCN(CC6CC6)CC5)CC4)cc3OC)nc2N1C(C)C | HD-MB03 | cell growth | 168 h, DMSO |  | pIC50 | 7.67 |
| CCn1cc(-c2cc(Cn3ccoc3=N)cc3c2CCN([C@@H](C)c2cc(OC)ccn2)C3=O)c(C(F)(F)F)n1 | NCI-H2030 | cell growth, inhibitor | 120 h |  | pEC50 | < 4.52 |
| Clc1nc(NCc2ccco2)c2[nH]cnc2n1 | iPSC-derived cardiomyocytes | RNA-seq, measured: ADGRD1 chr12 exon ending 130991078 | unit not given | baseline: DMSO minus compound | ΔPSI | -0.289 |
| COc1cc([C@@H]2c3cc4c(cc3[C@@H](O[C@@H]3O[C@@H]5CO[C@@H](C)O[C@H]5[C@H](O)[C@H]3O)[C@H]3COC(=O)[C@H]23)OCO4)cc(OC)c1O | HD-MB03 | cell growth | 168 h, single agent |  | pIC50 | 7.40 |

Repeated from above:
| SMILES | cell line | assay | conditions | scale | endpoint | result |
| --- | --- | --- | --- | --- | --- | --- |
| Cc1nc(Nc2ncc(C(=O)Nc3c(C)cccc3Cl)s2)cc(N2CCN(CCO)CC2)n1 | HD-MB03 | cell growth | 168 h, DMSO |  | pIC50 | 5.55 |
| Nc1cccc2c1C(=O)N(C1CCC(=O)NC1=O)C2=O (stereo not drawn) | MM1.S | XTT | 1.4 µM |  | viability | 28% and 16% and 29% |
| CC[C@@H]1C(=O)N(C)c2cnc(Nc3ccc(C(=O)N[C@H]4CC[C@H](N5CCN(CC6CC6)CC5)CC4)cc3OC)nc2N1C(C)C | HD-MB03 | cell growth | 168 h, DMSO |  | pIC50 | 7.67 |
